# Assay results pooled from the literature.
# Numbered parts are unrelated; each lists some results of a single study. Changes are numbered by the printed parent chain.

# Sample 1
# Target: BATF, bZIP domain (human)
# Technique: DHFR protein complementation
# Matrix: yeast
# Setting: single substitutions, most at no-binding floor
# Reference: wild-type JUN-FOS pair
# Direction: higher = stronger binding
# Starting sequence: JUN, bZIP domain (human); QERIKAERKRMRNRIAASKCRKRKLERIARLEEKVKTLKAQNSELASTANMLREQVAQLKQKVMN; partner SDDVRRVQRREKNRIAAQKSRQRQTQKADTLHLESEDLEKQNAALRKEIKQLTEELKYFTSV
Substitution,binding fitness [natural log]
E44D,-0.154
K34R,0.114
I28G,0.0626
K34M,-0.153
I28N,-0.0552
A29C,-0.184
A40H,-0.0353
K36M,0.0842
L38S,-0.705
I28A,-0.0532
L59C,-0.0307
E33Q,-0.188
N42M,-0.532
T37I,0.0286
L38R,-0.592
E32R,-0.0584
Q55D,-0.34
A57C,-0.309
L59S,-0.221
I28L,0.0645
R30T,0.109
L45H,-1.02
A57P,-1.26
Q58R,-0.059
T48Y,-0.0577

# Sample 2
# Target: RNA binding protein fox-1 homolog 2, RRM domain, GST-SBP tag (RBFOX2, Homo sapiens, UniProt O43251-10, residues 100-194)
# Technique: RNA Bind-n-Seq
# Molecule type: RNA
# Matrix: in vitro
# Tested at: 365 nM
# Setting: natural RNA segment, single round, ends assumed
# Reference: no-protein control
# Direction: higher = stronger binding
# Constant ends, left off below: GGGAGUUCUACAGUCCGACGAUC … UGGAAUUCUCGGGUGCCAA
# Target sequence (chain): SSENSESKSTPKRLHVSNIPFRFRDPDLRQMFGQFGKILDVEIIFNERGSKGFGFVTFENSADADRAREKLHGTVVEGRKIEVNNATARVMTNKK
Sequence,RBNS enrichment (R)
GGGUGUAAUUUUUCCCUUAAAAAGGUGUGUGACAACAAGAGAAGUUGCCUGCAUGCCGGUUUAAAUUGUUUAUGUAAAAAUGCUGUUAUAAGACAUAGAUUUAUCCUAGU,2.35
CACUCAGCCCUGAGUGUUAGGCACUGGCAGAGAGGCAAUGGCAGGCUCACCUUGAUGGAGGGACUGGGGUGGGUGGGACUACCGCCCCGCCCACCUGUCUGCACUCCUGU,0.369
GUACUACAAGUCCUUAGAGAAAGCUAACUGCUGAGCUGGGCACUCUGCCUGGGACGCAUGGCUGAGUAACAGAGGGGACCACGCAGCCACCGACAGCCCUUCUCUGCGGU,1.45
AUGAUUUUUUACAGUGUUUUAGACCUUGAAUAGCUAGUGGCUUUUGCUAAAAACUUUUGGCAACAAAAUUAAACUAAAACCAAAGUCAACAUGUGAAGUGUUUAUCAUAA,0.433
UUCGUAGUAUUUGAAAGAAUAAAUCAAGUUUUGAUUAUGCUAUAGGUUGAUUUUUGUGUUGAUCCAAAUCAGAAUAGCUAUUGAGUGUUUAAGUCAUGACUUUAUUUUUC,1.44
CUCCUGGAAGACAAGUGCCUUCUCCCUCCAUGGAUCUGUGAUCUUCCCAGCUCUGCAUCAACACAGCAGCCUGCAGAUAACACUUGGGGGGACCUCAGCCUCUAUUCGCA,1.15
UUCUUUCUCUAUGUUCCAAAACCAUUCCAUUUCAAAGCACUUUUGGUCAGCUAGCUGGAGGCAGUGUUGCUGGUGUGUGUUGGGGGGAGGGGUUCUAAUGGAAUGGAUGG,0.425
UUCCCUCACUAAAAGCUUAAGCAAUUGUCAGUCAGAAUUCUGUUUGCUGAGUGCUGGUGCAGGCUUUAUGCUUUCCACGUGAAUUAAAUCAAAUGUGAAGUUGAUCCAGA,0.474
AAUUCAAAUCGUGUGACAGCAAACGGGAUAAAUGGCCCCUUCUCACCCAGUUCCGCUCAGGGCCAUACAGGCUUGCACAUAGAGUGUGCUAAAAAUGGUAACCUCCUUUG,0.285
AGCGCUUGCCCGAGGCCAGCGCGCUCCCCGCGCCAGGACUCCAUUAAAGCCGCUAAGACGCGCGGGCGCUCCGCCUCCACGCCUGUUUUUUGCCUUCCGAGGGCUGCACU,0.358
CUGGUUAGUACUGGUCCCCUUCUGGGCAACAUGGCCCUACCAGACACUGCUGCUGCCCCGUCGGCAUGUGCGGCGGCUACCUGAGCUGACCCCUGCUGAGCGUGAUGGUC,0.824
UUAGAUUUGCCGUACCAAUCUCUGAAUGCCCCAUAAUUAUUAUUUCCAGUGUUUGGGAUGACCAGGAUCCCAAGCCUCCUGCUGCCACAAUGUUUAUAAAGGCCAAAUGA,0.484

# Sample 3
# Target: Histone acetyltransferase KAT6A, winged helix 2, GST fusion (KAT6A, Homo sapiens, UniProt Q92794, residues 85-181)
# Technique: protein binding microarray
# Molecule type: double-stranded DNA, one strand shown
# Matrix: in vitro
# Tested at: not given
# Setting: 8-mer, flanks averaged, mean of 2 arrays, mostly near background
# Reference: not given
# Direction: higher = stronger binding
# Residues (chain): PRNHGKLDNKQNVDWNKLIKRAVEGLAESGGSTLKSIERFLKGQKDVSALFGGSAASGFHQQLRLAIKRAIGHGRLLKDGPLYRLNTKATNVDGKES
Sequence,E-score
CACCACTC,0.117
CAGCTCCA,-0.0105
GCATGTCC,-0.0906
CTGTCGAA,-0.0696
AGGGCATA,0.0485
GGGGCCTA,-0.0992
GTCGATTA,-0.0174
AGTCAGAT,-0.0601
ACCGCATA,0.0304
CATCGCCG,0.164
GATATTGC,-0.0795
GTCGCGCA,0.0184
GCCTTCGA,0.0436
CTTTTAAA,0.0443
CTTCTTAA,0.0904
ATTTGGAA,0.0306
AGCCCCGA,0.0422
GACTTTCA,-0.183
CGTGGCAG,0.097

# Sample 4
# Target: CCND2, cyclin fold, Cln2 fusion (human)
# Technique: yeast growth competition, sequencing
# Matrix: yeast
# Setting: weak parent motif
# Reference: not given
# Direction: higher = stronger binding
# Starting sequence: MICAL3 docking peptide (human); LQLRRQLSFSEDS; partner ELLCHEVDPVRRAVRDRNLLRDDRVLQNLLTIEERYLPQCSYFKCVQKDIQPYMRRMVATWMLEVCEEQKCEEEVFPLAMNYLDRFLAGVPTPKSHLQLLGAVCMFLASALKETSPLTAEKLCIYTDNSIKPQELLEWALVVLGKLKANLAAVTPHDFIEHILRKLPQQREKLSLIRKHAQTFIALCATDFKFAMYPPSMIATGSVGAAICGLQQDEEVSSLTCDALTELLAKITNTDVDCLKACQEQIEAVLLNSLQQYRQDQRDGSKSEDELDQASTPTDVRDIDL
Substitution,normalised enrichment score
D12K,0.124
R4V,0.0516
L3Y,0.06
L7I,0.331
L7Y,-0.221
R4K,0.194
F9P,-0.0406
R5E,-0.0147
R4C,0.507
S8Y,0.226
E11Q,0.276
R4P,0.0139
R4M,-0.262
Q6T,0.226
Q2L,0.025
S10C,0.35
F9H,-0.265
Q2G,0.0522
R5K,0.107
S10I,0.241
R5G,-0.0577
L7K,0.0385
R5Y,0.195
R4F,0.0741
L3F,0.333

# Sample 5
# Target: Ras GTPase-activating protein-binding protein 1, full length (G3BP1, Homo sapiens, UniProt Q13283)
# UniProt Q13283, sequence (whole entry, looked up): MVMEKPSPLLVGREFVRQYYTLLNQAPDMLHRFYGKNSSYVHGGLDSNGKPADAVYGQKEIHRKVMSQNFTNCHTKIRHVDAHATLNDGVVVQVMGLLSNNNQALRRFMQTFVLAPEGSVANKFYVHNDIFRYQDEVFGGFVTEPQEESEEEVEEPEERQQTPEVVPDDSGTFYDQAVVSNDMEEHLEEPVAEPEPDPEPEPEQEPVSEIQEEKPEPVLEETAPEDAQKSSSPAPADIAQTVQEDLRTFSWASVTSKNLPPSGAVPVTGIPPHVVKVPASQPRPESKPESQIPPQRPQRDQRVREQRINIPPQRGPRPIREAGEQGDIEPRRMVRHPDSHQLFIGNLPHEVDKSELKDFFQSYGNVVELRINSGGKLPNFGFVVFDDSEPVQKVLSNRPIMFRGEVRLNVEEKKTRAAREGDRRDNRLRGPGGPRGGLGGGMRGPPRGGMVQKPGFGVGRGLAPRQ
# Technique: RNA Bind-n-Seq
# Molecule type: RNA
# Matrix: in vitro
# Tested at: 200 nM
# Setting: whole 134-nt RNA, ends assumed
# Added: 150 mM KCl
# Reference: input library
# Direction: higher = stronger binding
# Constant ends, left off below: GGGAGUUCUACAGUCCGACGAUC … UGGAAUUCUCGGGUGUCAAGG
Sequence,log2 enrichment
UCCCUAUUCCAGUCAUACACGUGGACCUAACUGCACCAGUAGCUUUUCUGAGAAUACUUGCUGAAAAGGAAGUUUUCUGGAAUGGGUAAG,-0.459
UAACUUUAGAGGAGGAUCUGAUGGAUAUGGCAGUGGACGAGGAUUUGGGGAUGGCUAUAAUGGGUAUGGAGGAGGACCUGGAGGUGGCAA,0.345
CACAGACAACACGCACCCACACAGACACAGAGGGAAGGGGAUGGGAUGGGGACAGGGUGCACAGCAGGGCGGGGUAGGACCCCAGCCCCU,1.86
GUCCUGUGCUACACAUCGUAUGUACCGAAUCGGGCCCCCCGGCCCCCCGGGCCCCCCGGAAAGUAUUAUGUUACGCCGUUCGGAUCUGCA,-0.195
UCAAGUCCUGUGCUACACAUCGUAUGUACCGAAUCGGUUUUUGGAGGUUUUUGGAAAGUAUUAUGUUACGCCGUUCGGAUCUGCACUUCC,-0.665
CUCAAGUCCUGUGCUACACAUCGUAUGUACCGAAUCGGGCCGGCCGGGCCGGGAAAGUAUUAUGUUACGCCGUUCGGAUCUGCACUUCCA,-0.167
CCUCAAGUCCUGUGCUACACAUCGUAUGUACCGAAUCGGGCGGGGCGGGCGGAAAGUAUUAUGUUACGCCGUUCGGAUCUGCACUUCCAG,0.645
CGCAGAAGUCGCGUGUCUAGGUGAGUCGCGGUGGGUCCUCGCUUGCAGUUCAGCGACCACGGUGGGUACCGUUUUUGCGAGGAUUGUUUG,-1.69
CCUGUGCUACACAUCGUAUGUACCGAAUCGGGGUUUGGGGUUUUUGGGGAAAAAAAGGGGAAAGUAUUAUGUUACGCCGUUCGGAUCUGC,0.156
GCAGGAAGUAAAAACAAAUGGAAAUGCUUCGGAUAGUGGCAGGGGUGGGGGUUCCUAAGGAAAGGGUGGGAUGGGAGUGGGUAAAGAGUU,1.44
CUCAAGUCCUGUGCUACACAUCGUAUGUACCGAAUCGGGUGGGUGGGGUGGGGAAAGUAUUAUGUUACGCCGUUCGGAUCUGCACUUCCA,1.27
CCUCAAGUCCUGUGCUACACAUCGUAUGUACCGAAUCGGUGGGGUGGGGUGGAAAGUAUUAUGUUACGCCGUUCGGAUCUGCACUUCCAG,0.324
CCUGUGCUACACAUCGUAUGUACCGAAUCGGAAAAAAAGGAAAAAAAGGGGAAAAAAAGGGAAAGUAUUAUGUUACGCCGUUCGGAUCUG,-0.974
UAACUUUAGAGGAGGAUCUGAUGGAUAUGGCAGUGGACGUGGAUUUGGGGAUGGCUAUCAUGGGUAUGGAGGAGGACCUGGAGGUGGCAA,0.313

# For quick reference, copied from above (sample 3):
Sequence,E-score
CTTCTTAA,0.0904
AGGGCATA,0.0485
ACCGCATA,0.0304
CTTTTAAA,0.0443
AGTCAGAT,-0.0601
GACTTTCA,-0.183
CACCACTC,0.117
GCATGTCC,-0.0906
ATTTGGAA,0.0306
CATCGCCG,0.164
GTCGCGCA,0.0184
CTGTCGAA,-0.0696
GTCGATTA,-0.0174
GGGGCCTA,-0.0992
GCCTTCGA,0.0436
